Measured values from different studies.
Each line is one published result; not all experiments were run side by side. Several values in a cell are separate wells, animals, samples, runs or records. ± marks the error that the study gave.
ABL1: Tyrosine-protein kinase ABL1 (ABL1, Homo sapiens, UniProt P00519)

SMILES	target	test	setting	endpoint	value
CN1CC[C@@H](COc2cnc(C#N)cc2-c2ccn3nc(NC(=O)C4CC4)cc3c2)C1	ABL1	–	–	Ki	225 nM
COCC1CN(C2CCN(c3cc(OC)c(Nc4ncc(Br)c(Nc5ccc6c(c5P(C)(C)=O)OCCO6)n4)cc3C)CC2)C1	ABL1	enzyme activity, inhibitor	–	IC50	86 nM
Cc1nc(NCCOCCOCCNc2ncc(C(=O)NC3=NN(c4ccc(Cl)c(Cl)c4)CC3)c(C)n2)ncc1C(=O)NC1=NN(c2ccc(Cl)c(Cl)c2)CC1	Tyrosine-protein kinase ABL1, myristoyl pocket (ABL1, Homo sapiens, UniProt P00519)	–	–	Kd	47 nM
COc1ccc(OC(C)=O)cc1-c1c[nH]c2ncc(-c3cncc(C(=O)N(C)C)c3)cc12	ABL1	kinase activity, inhibitor, HTRF	1 h preincubation, added: ATP 20 µM	IC50	5.5 ± 0.6 nM
Cc1nn(-c2cccc(N)c2)c(=O)c2cnc(Nc3ccc(N4CCNCC4)cc3)nc12	ABL1	enzyme activity, inhibitor	–	IC50	720 nM
C=CC(=O)Oc1ccc(OC)c(-c2c[nH]c3ncc(-c4cncc(C(=O)N(C)C)c4)cc23)c1	ABL1	kinase activity, inhibitor, HTRF	1 h preincubation, added: ATP 20 µM	IC50	15.3 nM and 15 nM
CCN(CC)CC(=O)Nc1cccc(-n2cc(-c3ccc4ccc(-c5cn(-c6cccc(NC(=O)CN(CC)CC)c6)nn5)cc4c3)nn2)c1	Tyrosine-protein kinase ABL1, non-phosphorylated (ABL1, Homo sapiens, UniProt P00519)	enzyme activity, inhibitor	–	IC50	> 10000 nM
C=CS(=O)(=O)Oc1ccc(OC)c(-c2c[nH]c3ncc(-c4cncc(C(=O)N(C)C)c4)cc23)c1	ABL1	kinase activity, inhibitor, HTRF	1 h preincubation, added: ATP 20 µM	IC50	43.1 ± 4.6 nM
Cc1nc(Nc2ncc(C(=O)Nc3c(C)cccc3Cl)s2)cc(N2CCN(CCNC(=O)c3ccc(C(=O)c4ccc(OCC(=O)NCCOCCOCCCCCCCl)cc4)cc3)CC2)n1	ABL1	–	–	IC50	< 4 nM

A few entries again:
SMILES	target	test	setting	endpoint	value
Cc1nc(Nc2ncc(C(=O)Nc3c(C)cccc3Cl)s2)cc(N2CCN(CCNC(=O)c3ccc(C(=O)c4ccc(OCC(=O)NCCOCCOCCCCCCCl)cc4)cc3)CC2)n1	ABL1	–	–	IC50	< 4 nM
